Measurements pooled from the literature.
Each line is one published result; not all experiments were run side by side.
Target: High affinity nerve growth factor receptor (NTRK1, Homo sapiens, UniProt P04629)
UniProt P04629, sequence (whole entry, looked up): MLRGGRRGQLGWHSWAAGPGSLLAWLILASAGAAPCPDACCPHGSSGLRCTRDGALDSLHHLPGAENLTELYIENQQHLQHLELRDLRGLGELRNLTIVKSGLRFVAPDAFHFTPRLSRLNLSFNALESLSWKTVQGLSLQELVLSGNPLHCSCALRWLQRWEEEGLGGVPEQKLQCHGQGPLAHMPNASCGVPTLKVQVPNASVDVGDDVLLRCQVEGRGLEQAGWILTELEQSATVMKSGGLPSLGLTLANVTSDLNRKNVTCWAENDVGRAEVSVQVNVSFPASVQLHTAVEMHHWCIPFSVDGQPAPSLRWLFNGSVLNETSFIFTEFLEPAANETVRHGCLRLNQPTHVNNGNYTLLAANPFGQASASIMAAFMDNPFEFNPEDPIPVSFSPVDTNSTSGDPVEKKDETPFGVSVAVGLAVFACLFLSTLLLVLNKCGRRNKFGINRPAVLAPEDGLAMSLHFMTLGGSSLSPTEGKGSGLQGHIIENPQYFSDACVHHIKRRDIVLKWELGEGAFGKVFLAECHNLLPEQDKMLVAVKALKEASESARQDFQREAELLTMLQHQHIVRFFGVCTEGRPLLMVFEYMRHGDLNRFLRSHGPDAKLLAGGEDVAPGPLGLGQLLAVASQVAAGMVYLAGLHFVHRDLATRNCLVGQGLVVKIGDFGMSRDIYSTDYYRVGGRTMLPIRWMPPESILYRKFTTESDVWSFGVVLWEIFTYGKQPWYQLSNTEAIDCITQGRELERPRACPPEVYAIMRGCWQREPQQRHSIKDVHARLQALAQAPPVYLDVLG

SMILES	assay	conditions	scale	quantity	result
O=C1NC(=O)c2c1c1cc(F)c[n+]3c1c1c2c2cc(O)ccc2[n]1[Ru-4]312([N]=C=S)[S+]3CC[S+]1CC[S+]2CC3 (centres unmarked)	enzyme activity	100 nM, human enzyme, with: 10 µM ATP	reference: untreated	remaining activity	17%
N[C@H](C(=O)N1CCCC1)C1CCN(c2nccc3c(-c4ncc(Cl)cc4Cl)cccc23)CC1	kinase activity, inhibitor	10 µM, with: ATP 1 mM	–	inhibition	23.2%
CC(C)[C@H]1NC(=O)C[C@H]2/C=C/CCSSC[C@@H](NC1=O)C(=O)N[C@H](Cc1cccc3ccccc13)C(=O)NCC(=O)O2	enzyme activity, inhibitor	10 µM	–	inhibition	6.8%
CCOC(=O)[C@@H]1Cc2c(cc([N+](=O)[O-])cc2[N+](=O)[O-])[C@H](O)[C@]12C(=O)Nc1ccc(Br)cc12	binding, competition with immobilised ligand	0.1 µM	–	remaining binding	68%
CS(C)(=O)=Nc1ccc(-c2ccc(-c3nc4cc(O[C@@H]5CO[C@H]6[C@@H]5OC[C@H]6O)[nH]c4cc3F)cc2)cc1	enzyme activity, inhibitor	10 µM	–	inhibition	9%
Nc1ccc(/C=C/C(=O)N2CCc3c(oc4c(-c5ccc(F)cc5)cc(-c5ccc(C(=O)N6CCC(F)(F)CC6)cn5)cc34)C2)cn1	binding, competition with immobilised ligand	1 µM	–	remaining binding	100%
CN(/N=C/c1ccccc1C(=O)O)c1nc(-c2ccccc2Cl)cs1	enzyme activity, inhibitor	1 µM	–	inhibition	-43.1%
C[C@H](NCc1ccc(-c2ccc(C(F)(F)F)cc2)cc1)C(N)=O	cell-free assay, competition with immobilised ligand	1 µM	–	inhibition	0%

Some of these lines once more:
SMILES	assay	conditions	scale	quantity	result
CN(/N=C/c1ccccc1C(=O)O)c1nc(-c2ccccc2Cl)cs1	enzyme activity, inhibitor	1 µM	–	inhibition	-43.1%
